Measured values collected from several papers.
A part holds a random share of what one study measured. “And” joins repeats or separate records; there may be more than shown.
Chain of UniProt P31152 (whole entry, looked up): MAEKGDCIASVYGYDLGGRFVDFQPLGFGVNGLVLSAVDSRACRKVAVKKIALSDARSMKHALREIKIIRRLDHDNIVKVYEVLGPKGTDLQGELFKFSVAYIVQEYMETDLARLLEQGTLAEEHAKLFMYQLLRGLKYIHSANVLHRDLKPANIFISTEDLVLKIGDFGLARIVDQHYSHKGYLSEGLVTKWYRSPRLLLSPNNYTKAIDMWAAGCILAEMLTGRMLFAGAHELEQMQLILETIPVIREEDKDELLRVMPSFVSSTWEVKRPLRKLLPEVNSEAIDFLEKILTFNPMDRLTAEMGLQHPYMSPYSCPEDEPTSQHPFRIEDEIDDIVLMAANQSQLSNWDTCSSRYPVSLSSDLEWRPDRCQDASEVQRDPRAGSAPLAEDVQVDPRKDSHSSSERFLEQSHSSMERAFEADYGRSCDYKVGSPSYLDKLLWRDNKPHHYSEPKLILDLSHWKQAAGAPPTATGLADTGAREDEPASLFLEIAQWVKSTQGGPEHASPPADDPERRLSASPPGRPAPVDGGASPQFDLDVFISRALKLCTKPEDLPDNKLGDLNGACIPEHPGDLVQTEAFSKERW
Chain of UniProt O75460 (whole entry, looked up): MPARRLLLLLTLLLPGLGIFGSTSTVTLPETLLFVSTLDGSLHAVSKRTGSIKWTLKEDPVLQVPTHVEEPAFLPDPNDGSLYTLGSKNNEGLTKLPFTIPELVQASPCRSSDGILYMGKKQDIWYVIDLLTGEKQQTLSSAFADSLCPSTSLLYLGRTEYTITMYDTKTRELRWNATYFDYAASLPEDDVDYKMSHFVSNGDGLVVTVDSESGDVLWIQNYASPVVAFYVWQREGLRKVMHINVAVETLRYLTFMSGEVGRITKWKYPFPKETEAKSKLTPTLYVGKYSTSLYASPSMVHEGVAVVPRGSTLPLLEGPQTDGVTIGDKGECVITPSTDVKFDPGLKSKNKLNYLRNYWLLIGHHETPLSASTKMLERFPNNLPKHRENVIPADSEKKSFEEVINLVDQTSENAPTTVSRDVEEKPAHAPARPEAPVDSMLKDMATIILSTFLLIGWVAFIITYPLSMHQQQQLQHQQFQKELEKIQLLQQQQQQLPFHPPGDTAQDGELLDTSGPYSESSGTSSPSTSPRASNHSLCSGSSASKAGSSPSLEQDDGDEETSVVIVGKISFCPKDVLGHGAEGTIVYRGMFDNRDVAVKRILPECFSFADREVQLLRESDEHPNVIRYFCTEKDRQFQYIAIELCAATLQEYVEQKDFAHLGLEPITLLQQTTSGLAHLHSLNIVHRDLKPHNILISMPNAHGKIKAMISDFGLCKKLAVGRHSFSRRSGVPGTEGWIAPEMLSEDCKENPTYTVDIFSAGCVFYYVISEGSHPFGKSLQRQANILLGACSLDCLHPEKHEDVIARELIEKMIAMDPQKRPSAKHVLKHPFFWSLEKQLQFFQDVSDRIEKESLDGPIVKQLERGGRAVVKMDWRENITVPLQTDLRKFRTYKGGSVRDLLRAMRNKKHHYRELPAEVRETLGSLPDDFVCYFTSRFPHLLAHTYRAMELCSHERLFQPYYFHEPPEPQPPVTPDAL
Chain of UniProt Q9UHD2 (whole entry, looked up): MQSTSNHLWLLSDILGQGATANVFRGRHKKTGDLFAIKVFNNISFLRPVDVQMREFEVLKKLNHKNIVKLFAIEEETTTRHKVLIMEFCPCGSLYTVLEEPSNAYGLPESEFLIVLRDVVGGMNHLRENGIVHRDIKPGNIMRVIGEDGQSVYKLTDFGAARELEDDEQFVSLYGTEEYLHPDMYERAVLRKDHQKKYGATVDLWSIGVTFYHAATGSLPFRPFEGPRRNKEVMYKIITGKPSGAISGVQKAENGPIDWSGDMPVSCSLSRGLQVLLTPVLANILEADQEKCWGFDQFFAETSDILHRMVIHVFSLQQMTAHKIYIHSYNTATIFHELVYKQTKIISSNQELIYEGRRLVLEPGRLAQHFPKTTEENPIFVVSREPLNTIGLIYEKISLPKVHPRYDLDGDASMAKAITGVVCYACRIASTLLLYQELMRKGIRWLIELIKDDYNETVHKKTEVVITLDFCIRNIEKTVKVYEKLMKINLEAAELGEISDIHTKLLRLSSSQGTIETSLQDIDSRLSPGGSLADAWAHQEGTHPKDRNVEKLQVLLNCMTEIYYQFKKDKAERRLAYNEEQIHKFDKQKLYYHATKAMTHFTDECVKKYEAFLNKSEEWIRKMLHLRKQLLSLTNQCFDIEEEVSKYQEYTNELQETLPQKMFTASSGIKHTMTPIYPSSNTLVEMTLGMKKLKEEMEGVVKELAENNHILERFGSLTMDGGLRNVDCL
Chain of UniProt Q12852 (whole entry, looked up): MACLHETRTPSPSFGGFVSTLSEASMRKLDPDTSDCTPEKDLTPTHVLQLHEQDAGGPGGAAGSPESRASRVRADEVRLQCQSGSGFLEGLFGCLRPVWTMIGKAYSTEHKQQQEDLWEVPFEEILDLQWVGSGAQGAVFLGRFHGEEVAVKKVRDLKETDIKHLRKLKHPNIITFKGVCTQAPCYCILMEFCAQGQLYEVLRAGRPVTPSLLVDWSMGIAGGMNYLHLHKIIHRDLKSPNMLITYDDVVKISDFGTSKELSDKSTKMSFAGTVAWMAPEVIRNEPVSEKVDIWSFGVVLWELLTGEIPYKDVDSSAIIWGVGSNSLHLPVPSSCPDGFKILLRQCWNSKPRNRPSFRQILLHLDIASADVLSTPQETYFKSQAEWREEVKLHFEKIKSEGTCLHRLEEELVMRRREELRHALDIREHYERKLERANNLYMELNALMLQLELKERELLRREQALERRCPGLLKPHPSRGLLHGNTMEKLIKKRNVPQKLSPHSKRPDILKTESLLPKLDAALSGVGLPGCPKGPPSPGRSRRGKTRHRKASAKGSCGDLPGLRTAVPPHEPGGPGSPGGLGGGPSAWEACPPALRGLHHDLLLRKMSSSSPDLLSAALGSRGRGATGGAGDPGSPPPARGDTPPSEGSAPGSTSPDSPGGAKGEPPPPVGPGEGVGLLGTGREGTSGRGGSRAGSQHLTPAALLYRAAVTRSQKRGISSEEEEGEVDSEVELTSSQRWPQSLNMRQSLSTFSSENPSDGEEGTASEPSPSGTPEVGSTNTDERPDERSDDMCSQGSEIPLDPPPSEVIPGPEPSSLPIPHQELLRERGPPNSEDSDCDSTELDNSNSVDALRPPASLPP

Sample 1
Cell line: HaCaT
Concentration: 100 µM
Time: 18 h
| Structure (SMILES) | viability [%] |
| --- | --- |
| CC(=O)Nc1ncc([N+](=O)[O-])s1 | 98.6 |
| CC(C)n1c(/C=C/[C@H](O)C[C@H](O)CC(=O)O)c(-c2ccc(F)cc2)c2ccccc21 (racemic) | 107 |
| COc1cc([C@@H]2c3cc4c(cc3[C@@H](O[C@@H]3O[C@@H]5CO[C@@H](c6cccs6)O[C@H]5[C@H](O)[C@H]3O)[C@H]3COC(=O)[C@H]23)OCO4)cc(OC)c1O | 36 |
| OC[C@@H](O)[C@@H](O[C@@H]1O[C@H](CO)[C@H](O)[C@H](O)[C@H]1O)[C@H](O)[C@@H](O)CO | 112 |
| CN(C)CCC=C1c2ccccc2CCc2ccccc21 | 28.4 |
| COc1cc2c(Nc3ccc(Br)cc3F)ncnc2cc1OCC1CCN(C)CC1 | 16.3 |

Sample 2
Compound: Cn1cc(Cl)c2c(Oc3c(F)cc(Nc4cc(Cl)nc(N)n4)cc3F)ccnc21
Observed: cell-free assay
Technique: competition with immobilised ligand
Concentration: 0.1 µM
| target | remaining binding |
| --- | --- |
| Receptor-type tyrosine-protein kinase FLT3, autoinhibited (FLT3, Homo sapiens, UniProt P36888) | 83% |
| PRKG1 (Homo sapiens, UniProt Q13976) | 83% |
| TTK (Homo sapiens, UniProt P33981) | 100% |
| FGFR3 (Homo sapiens, UniProt P22607) | 99% |
| STK39 (Homo sapiens, UniProt Q9UEW8) | 100% |
| PKMYT1 (Homo sapiens, UniProt Q99640) | 100% |
| MAP3K12 (Homo sapiens, UniProt Q12852) | 100% |
| RIOK3 (Homo sapiens, UniProt O14730) | 93% |
| RPS6KB1 (Homo sapiens, UniProt P23443) | 84% |
| RET (Homo sapiens, UniProt P07949, M918T) | 92% |
| MAPK4 (Homo sapiens, UniProt P31152) | 100% |
| ERN1 (Homo sapiens, UniProt O75460) | 76% |
| CDKL3 (Homo sapiens, UniProt Q8IVW4) | 96% |
| TBK1 (Homo sapiens, UniProt Q9UHD2) | 100% |

Sample 3
Target: Mitogen-activated protein kinase kinase kinase 11 (MAP3K11, Homo sapiens, UniProt Q16584)
Chain of UniProt Q16584 (whole entry, looked up): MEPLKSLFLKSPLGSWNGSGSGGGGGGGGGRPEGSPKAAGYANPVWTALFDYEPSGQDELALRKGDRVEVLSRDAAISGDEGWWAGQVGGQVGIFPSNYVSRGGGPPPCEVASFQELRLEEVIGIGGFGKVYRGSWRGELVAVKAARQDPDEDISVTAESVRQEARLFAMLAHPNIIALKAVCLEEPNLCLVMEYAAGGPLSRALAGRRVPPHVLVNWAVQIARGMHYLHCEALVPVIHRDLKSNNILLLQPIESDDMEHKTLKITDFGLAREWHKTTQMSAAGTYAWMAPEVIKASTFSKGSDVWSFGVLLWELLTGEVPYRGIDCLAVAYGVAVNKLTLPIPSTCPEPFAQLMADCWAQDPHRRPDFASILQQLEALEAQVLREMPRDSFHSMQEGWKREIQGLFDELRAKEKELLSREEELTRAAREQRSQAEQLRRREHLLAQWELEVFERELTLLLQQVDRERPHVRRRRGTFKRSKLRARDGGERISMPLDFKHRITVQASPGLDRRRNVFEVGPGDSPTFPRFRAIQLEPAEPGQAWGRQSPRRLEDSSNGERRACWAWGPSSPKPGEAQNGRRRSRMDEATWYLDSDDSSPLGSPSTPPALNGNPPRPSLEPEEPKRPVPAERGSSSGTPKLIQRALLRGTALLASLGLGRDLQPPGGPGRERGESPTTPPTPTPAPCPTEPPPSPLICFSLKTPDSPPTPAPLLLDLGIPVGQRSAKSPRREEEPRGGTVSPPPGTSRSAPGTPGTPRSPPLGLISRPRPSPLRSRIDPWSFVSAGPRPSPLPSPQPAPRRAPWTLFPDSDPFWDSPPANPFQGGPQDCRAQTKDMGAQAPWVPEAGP
Observed: enzyme activity
Action: inhibitor
Concentration: 0.5 µM
Relative to: control
| SMILES | remaining activity [%] |
| --- | --- |
| CNc1cc2c(Nc3cccc(Br)c3)ncnc2cn1 | 96.9 |
| CC(C)n1cnc2c(Nc3cccc(Cl)c3)nc(NCCO)nc21 | 51 |
| O=C(c1ccccc1)c1ccc(N2CCOCC2)cc1O | 93.2 |
| N#CC(c1ccnc(NCCc2cccnc2)n1)c1nc2ccccc2s1 (stereo not drawn) | 72.2 |
| O=c1c(-c2ccc(F)cc2)c(-c2ccncc2)[nH]n1-c1ccc(Cl)cc1 | 98 |
| COc1cc2c(Nc3ccc(Br)cc3F)ncnc2cc1OCC1CCN(C)CC1 | 100 |
| O=C1NC(=O)/C(=C/c2ccc3c(c2)OC(F)(F)O3)S1 | 97.8 |
| NC(=O)c1ccc(-c2nc(-c3ccc4c(c3)OCCO4)c(-c3ccccn3)[nH]2)cc1 | 96 |
| O=C(O)/C=C/c1cc(Br)c(Br)c(Br)c1Br | 96.3 |
| Clc1ccc(Nc2nnc(Cc3ccncc3)c3ccccc23)cc1 | 106 |
| COc1cc2c(N3CCN(C(=O)Nc4ccc(OC(C)C)cc4)CC3)ncnc2cc1OCCCN1CCCCC1 | 100 |
| CC(C)N(CCC(=O)c1ccc2ccccc2c1)Cc1ccccc1 | 97 |

Single results of other studies
| SMILES | measured | cell line | species | medium | dose | endpoint | value |
| --- | --- | --- | --- | --- | --- | --- | --- |
| CC(=O)N[C@@H](Cc1c[nH]c2ccccc12)C(=O)N[C@@H](CCC(=O)C=[N+]=[N-])C(=O)OC(C)C | CD44 CD62L | tetramer+ CD8+ T cells | mouse | draining lymph node | dose not given | central memory cells | 10.5% and 15.1% and 14.2% and 15.9% and 13.2% and 9.13% and 7.69% |
